Measured values pooled from the literature.
“And” joins repeats or separate records; there may be more than shown.
Target: Inhibitor of nuclear factor kappa-B kinase subunit alpha (CHUK, Homo sapiens, UniProt O15111)
Sequence (O15111 1-745, as in one of the studies): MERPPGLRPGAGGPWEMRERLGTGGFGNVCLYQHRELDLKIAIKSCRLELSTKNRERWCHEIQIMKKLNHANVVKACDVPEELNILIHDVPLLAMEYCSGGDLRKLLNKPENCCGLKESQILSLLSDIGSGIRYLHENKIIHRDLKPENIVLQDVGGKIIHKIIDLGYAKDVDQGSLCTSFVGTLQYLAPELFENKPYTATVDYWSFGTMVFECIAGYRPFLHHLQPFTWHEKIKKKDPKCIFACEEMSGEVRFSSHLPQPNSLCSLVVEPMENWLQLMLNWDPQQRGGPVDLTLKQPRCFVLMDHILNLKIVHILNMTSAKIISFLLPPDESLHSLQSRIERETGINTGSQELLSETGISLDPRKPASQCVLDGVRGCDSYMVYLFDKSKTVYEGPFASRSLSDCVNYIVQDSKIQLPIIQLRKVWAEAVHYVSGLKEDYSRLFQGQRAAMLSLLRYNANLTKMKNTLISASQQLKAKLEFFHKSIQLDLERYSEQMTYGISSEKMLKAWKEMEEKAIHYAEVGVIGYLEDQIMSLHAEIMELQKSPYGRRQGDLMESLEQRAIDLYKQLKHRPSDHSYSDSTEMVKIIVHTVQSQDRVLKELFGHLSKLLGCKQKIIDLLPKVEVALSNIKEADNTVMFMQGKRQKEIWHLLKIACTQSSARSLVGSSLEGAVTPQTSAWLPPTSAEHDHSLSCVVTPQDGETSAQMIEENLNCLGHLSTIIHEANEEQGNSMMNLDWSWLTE

SMILES	assay	setting	how to read	endpoint	value
COc1ccc(NC(=O)Nc2ccc3c(c2)C(=O)N(C(C)CO)CC(C)C(CN(C)Cc2ccc4c(c2)OCO4)O3)cc1 (stereo not drawn)	binding, competition with immobilised ligand	10 µM	–	remaining binding	58%
CC(C)=CC1OC(C)(C)C2C=C3C(=O)C(Cl)=CC(O)C3C3C(O)C4OC4C(=O)C132 (stereo not drawn)	cell-free assay, competition with immobilised ligand	10 µM	–	remaining binding	61%
CNC(=O)C1CCN(c2cc(C)c(F)cc2NC(=O)c2ccc(-c3cc(O)ccc3C)c(C)c2)CC1	binding, competition with immobilised ligand	1 µM	–	remaining binding	100%
Nc1ncc2c(n1)-c1c([nH]c3ccc(C4=CCOCC4)cc13)CCC2	binding, competition with immobilised ligand	1 µM	–	remaining binding	77%
NC(=O)[C@@H](O)C[C@H]1CCc2sc3ncnc(O[C@H]4CC[C@H](N5CCOCC5)CC4)c3c21	enzyme activity, inhibitor	10 µM	–	inhibition	9%
COCC12C(=O)NC3C4(C(OC)CC1O)C1CC5(O)C(OC)C(O)C(OC(C)=O)(C1C5OC(=O)c1ccccc1)C3(O)C(OC)C24 (stereo not drawn)	kinase activity, inhibitor, ProQinase kinase profiling	25 µM	reference: control	remaining activity	87% and 103%
COc1c(OCCCN2CCOCC2)ccc2c1N=C(NC(=O)c1cnc(N)nc1)N1CCN=C21	kinase activity, inhibitor	1 µM	reference: untreated control	remaining activity	109%
Cc1nc2c(F)cc(-c3nc(Nc4ccc(CNC(=O)CCCCCCC(=O)NO)cc4)ncc3F)cc2n1C(C)C	enzyme activity, inhibitor	1 µM	–	inhibition	80%
C=CC(=O)Nc1cccc(-c2cnc3[nH]cc(C(=O)NC(C)(C)C)c3n2)c1	kinase activity	0.1 µM	–	inhibition	1%
CC(=O)Nc1ccc(-c2ccnc(NCC3CCC3)n2)cc1	cell-free assay, competition with immobilised ligand	10 µM	–	remaining binding	31%
CN1CC[C@@H](COc2cnc(C#N)cc2-c2ccn3nc(NC(=O)C4CC4)cc3c2)C1	inhibitor, KinaseProfiler panel	1 µM	–	inhibition	19%
C=CC(=O)N1CCc2ccc(-n3c(=O)ccc4cnc5ccc(-c6cnn(C)c6)cc5c43)cc21	KINOMEscan	1 µM	reference: DMSO control	remaining binding	100%
COc1ccc(O)cc1-c1c[nH]c2ncc(-c3cncc(C(=O)N(C)C)c3)cc12	binding, competition with immobilised ligand	0.2 µM	–	inhibition	-9.02%
O=C(O)CCC(=O)c1cccc(NS(=O)(=O)c2c[nH]c3ncccc23)c1	kinase activity, radiometric	10 µM	–	remaining activity	115%
Cc1ccc(-c2c(/C=C(\C#N)C(=O)NC(C)C)n(CCCO)c3ncnc(N)c23)cc1	cell-free assay, competition with immobilised ligand	1 µM	–	remaining binding	73%

A few entries again:
SMILES	assay	setting	how to read	endpoint	value
NC(=O)[C@@H](O)C[C@H]1CCc2sc3ncnc(O[C@H]4CC[C@H](N5CCOCC5)CC4)c3c21	enzyme activity, inhibitor	10 µM	–	inhibition	9%
Cc1ccc(-c2c(/C=C(\C#N)C(=O)NC(C)C)n(CCCO)c3ncnc(N)c23)cc1	cell-free assay, competition with immobilised ligand	1 µM	–	remaining binding	73%
